Assay results from different studies.
Every numbered part comes from another study and shows a few of its results, in no order. Values joined by “and” are separate records of one study, mostly repeats; a detail may differ.
Chain of UniProt O14646 (whole entry, looked up): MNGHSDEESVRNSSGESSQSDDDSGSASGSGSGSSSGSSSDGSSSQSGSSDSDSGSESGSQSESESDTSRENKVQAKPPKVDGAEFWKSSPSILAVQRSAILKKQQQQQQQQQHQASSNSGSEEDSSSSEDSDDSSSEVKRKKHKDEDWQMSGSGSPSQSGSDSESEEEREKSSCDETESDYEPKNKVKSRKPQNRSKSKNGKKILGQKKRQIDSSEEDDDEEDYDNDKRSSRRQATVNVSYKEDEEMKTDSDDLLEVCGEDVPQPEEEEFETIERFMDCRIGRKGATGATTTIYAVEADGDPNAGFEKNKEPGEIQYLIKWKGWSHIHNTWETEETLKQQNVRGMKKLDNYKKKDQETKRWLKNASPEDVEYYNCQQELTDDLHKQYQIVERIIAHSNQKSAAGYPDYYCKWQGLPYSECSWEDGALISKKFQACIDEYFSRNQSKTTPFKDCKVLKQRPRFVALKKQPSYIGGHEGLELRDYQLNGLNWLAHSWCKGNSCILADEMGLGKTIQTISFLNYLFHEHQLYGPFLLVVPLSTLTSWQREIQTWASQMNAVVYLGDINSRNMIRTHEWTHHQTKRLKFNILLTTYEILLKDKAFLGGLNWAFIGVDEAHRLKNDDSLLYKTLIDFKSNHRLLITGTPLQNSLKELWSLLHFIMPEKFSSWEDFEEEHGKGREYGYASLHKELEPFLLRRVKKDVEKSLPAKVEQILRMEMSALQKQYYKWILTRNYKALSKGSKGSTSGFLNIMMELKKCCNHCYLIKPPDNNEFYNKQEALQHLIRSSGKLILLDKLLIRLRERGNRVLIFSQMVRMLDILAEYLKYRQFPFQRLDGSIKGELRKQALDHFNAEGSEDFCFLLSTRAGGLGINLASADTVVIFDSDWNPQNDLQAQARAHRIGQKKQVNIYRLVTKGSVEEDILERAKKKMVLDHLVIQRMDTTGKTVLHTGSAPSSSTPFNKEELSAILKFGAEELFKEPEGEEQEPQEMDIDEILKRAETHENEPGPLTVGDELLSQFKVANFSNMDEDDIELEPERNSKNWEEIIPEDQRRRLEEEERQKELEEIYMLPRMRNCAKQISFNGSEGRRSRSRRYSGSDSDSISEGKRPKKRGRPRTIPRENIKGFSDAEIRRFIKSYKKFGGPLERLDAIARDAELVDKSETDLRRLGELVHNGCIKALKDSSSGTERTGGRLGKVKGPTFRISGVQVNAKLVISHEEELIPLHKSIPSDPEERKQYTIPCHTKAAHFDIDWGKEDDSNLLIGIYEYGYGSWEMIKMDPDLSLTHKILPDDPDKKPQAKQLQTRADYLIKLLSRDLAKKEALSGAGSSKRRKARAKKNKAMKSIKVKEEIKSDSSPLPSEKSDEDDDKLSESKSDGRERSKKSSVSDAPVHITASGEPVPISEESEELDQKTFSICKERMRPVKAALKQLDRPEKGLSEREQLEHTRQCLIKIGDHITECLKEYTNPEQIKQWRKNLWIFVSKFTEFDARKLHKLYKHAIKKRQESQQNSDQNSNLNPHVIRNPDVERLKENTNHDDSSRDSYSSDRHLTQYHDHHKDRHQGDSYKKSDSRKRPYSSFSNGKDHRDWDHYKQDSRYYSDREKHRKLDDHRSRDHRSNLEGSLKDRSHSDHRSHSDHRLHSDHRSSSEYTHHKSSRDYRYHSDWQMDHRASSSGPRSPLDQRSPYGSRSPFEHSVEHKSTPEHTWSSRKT
Chain of UniProt Q15645 (whole entry, looked up): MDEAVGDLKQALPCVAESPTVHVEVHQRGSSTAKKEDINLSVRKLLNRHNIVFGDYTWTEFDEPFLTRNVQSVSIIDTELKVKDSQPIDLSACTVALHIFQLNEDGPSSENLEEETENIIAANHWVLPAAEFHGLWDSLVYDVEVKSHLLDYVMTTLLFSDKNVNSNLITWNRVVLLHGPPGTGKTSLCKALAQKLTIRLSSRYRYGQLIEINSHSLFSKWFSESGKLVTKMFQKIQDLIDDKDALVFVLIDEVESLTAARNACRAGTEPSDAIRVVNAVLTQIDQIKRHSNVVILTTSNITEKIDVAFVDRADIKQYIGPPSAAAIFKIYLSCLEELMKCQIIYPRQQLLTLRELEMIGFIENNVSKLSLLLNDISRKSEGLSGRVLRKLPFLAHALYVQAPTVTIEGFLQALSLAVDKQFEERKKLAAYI
Chain of UniProt Q9NZC9 (whole entry, looked up): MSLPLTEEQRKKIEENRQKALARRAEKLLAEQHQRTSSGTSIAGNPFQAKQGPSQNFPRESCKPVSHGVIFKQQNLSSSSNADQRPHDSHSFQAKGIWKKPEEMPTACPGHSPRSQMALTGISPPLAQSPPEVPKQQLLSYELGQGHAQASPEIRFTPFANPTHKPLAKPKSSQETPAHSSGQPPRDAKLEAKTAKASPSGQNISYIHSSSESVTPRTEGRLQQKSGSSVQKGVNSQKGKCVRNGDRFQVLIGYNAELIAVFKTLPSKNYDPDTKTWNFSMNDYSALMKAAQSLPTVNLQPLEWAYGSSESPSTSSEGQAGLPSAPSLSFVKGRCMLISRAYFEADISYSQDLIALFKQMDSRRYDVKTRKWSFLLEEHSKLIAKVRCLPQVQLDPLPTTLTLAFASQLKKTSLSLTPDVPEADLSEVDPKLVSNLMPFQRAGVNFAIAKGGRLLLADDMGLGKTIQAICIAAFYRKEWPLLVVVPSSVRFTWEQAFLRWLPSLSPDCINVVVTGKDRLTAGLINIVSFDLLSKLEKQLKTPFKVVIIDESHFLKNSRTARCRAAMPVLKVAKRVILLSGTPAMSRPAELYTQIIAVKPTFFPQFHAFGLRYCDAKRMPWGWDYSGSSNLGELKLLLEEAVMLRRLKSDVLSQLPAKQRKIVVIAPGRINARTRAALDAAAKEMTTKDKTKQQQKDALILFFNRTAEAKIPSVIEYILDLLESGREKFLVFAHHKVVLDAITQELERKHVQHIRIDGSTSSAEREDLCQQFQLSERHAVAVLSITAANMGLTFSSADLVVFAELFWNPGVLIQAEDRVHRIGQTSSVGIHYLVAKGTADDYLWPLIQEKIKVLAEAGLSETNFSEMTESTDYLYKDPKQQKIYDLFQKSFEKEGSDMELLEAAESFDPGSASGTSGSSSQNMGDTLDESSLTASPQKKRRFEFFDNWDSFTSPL
Chain of UniProt Q13153 (whole entry, looked up): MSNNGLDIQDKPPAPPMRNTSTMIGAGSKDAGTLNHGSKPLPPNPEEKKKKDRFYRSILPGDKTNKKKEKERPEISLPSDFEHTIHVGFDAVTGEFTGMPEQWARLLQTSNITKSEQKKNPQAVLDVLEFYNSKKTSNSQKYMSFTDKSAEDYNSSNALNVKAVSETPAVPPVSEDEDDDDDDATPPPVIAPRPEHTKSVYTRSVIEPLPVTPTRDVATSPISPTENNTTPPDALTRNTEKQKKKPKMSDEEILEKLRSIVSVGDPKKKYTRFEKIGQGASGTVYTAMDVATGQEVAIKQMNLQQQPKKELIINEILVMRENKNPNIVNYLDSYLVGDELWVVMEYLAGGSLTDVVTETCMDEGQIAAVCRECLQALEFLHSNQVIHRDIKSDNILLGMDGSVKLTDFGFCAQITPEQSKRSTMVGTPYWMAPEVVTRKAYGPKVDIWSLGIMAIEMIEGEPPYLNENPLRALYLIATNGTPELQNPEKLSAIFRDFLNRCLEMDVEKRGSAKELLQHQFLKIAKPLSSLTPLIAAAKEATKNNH
Chain of UniProt P52564 (whole entry, looked up): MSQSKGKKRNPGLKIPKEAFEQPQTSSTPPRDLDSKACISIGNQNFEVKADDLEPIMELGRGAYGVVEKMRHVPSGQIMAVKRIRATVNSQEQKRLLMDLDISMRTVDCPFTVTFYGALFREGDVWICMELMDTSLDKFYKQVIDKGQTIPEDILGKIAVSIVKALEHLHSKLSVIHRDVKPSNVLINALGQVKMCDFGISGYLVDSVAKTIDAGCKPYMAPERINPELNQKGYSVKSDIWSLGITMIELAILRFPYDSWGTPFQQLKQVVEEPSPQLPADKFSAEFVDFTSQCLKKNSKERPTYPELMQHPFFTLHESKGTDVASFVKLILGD

Set 1
Host: mouse
Matrix: microsomes or S9
Concentration: 2 µM
Time: 0.5 h
| Compound | remaining compound [%] |
| --- | --- |
| O=C(Nc1nncn1-c1ccccc1)c1cnc2ccccn12 | 29.3 |
| CCN(c1ccc2c(c1)OCO2)c1cc(Cl)nc(Cl)n1 | 67.5 |
| CCN1CCN(C(=O)c2cc3c(=O)n4cc(C)ccc4nc3n2C)CC1 | 57.4 |
| CCC(CC)CN1CC2(CCN(C(=O)[C@@H]3C[C@H](N)CN3C)CC2)OC1=O | > 100 |
| CC(C)(O)CC[C@@H](O)[C@](C)(O)C1CC[C@@]2(O)C3=CC(=O)C4C[C@@H](O)[C@@H](O)C[C@]4(C)C3CC[C@]12C (stereo partly shown) | 95.8 |
| O=C(CN1CCOCC1)N1CCC(c2nc(-c3ccccc3)no2)C1 (stereo not shown) | 66.1 |
| CCS(=O)(=O)CCNC(=O)NC(C)c1ccc(C)s1 (stereo not shown) | 48.5 |
| Cc1c(Cl)c(C(=O)NN2CCOCC2)nn1C | 97.9 |
| Cc1ccc(O[C@H]2COCC[C@H]2NC(=O)c2cnn[nH]2)cn1 | 89.7 |

Set 2
Structure (SMILES): Cc1c(NC(=O)c2cc(C(N)=O)nc3cc(F)ccc23)c(C(F)(F)F)nn1Cc1ccc(C#N)cc1
Method: competition with immobilised ligand
Concentration: 1 µM
| target | test | remaining binding [%] |
| --- | --- | --- |
| LTK (Homo sapiens, UniProt P29376) | cell-free assay | 82 |
| DDR2 (Homo sapiens, UniProt Q16832) | cell-free assay | 66 |
| GAK (Homo sapiens, UniProt O14976) | cell-free assay | 95 |
| MAP2K6 (Homo sapiens, UniProt P52564) | cell-free assay | 100 |
| PAK1 (Homo sapiens, UniProt Q13153) | cell-free assay | 100 |
| DSTYK (Homo sapiens, UniProt Q6XUX3) | cell-free assay | 78 |
| MYLK2 (Homo sapiens, UniProt Q9H1R3) | binding | 90 |
| ERBB4 (Homo sapiens, UniProt Q15303) | cell-free assay | 95 |

Set 3
Target: Calcium/calmodulin-dependent protein kinase type II subunit beta (CAMK2B, Homo sapiens, UniProt Q13554)
Chain of UniProt Q13554 (whole entry, looked up): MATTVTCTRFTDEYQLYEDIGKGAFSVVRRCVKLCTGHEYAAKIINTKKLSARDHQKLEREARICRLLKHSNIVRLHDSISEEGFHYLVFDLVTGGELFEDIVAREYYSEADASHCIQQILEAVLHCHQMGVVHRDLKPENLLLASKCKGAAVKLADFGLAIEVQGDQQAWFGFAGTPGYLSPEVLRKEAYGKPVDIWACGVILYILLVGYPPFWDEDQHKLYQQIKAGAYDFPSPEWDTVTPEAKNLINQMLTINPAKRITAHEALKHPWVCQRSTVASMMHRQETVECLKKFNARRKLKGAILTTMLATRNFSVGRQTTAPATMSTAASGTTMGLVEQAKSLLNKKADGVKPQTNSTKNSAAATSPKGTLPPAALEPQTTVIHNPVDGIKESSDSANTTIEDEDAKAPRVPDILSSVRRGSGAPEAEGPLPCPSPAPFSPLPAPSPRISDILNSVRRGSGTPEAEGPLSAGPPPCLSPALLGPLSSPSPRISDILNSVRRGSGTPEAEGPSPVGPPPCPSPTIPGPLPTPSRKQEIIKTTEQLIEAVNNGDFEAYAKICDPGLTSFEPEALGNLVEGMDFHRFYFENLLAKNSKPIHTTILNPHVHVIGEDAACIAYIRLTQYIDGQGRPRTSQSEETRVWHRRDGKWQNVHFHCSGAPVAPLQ
Read-out: enzyme activity
Action: inhibitor
Concentration: 0.5 µM
Relative to: control
| SMILES | remaining activity [%] |
| --- | --- |
| N#CC(C#N)=C(N)/C(C#N)=C/c1ccc(O)cc1 | 93.3 |
| CO[C@H]1C[C@@H]2CC[C@@H](C)[C@@](O)(O2)C(=O)C(=O)N2CCCC[C@H]2C(=O)O[C@H]([C@H](C)C[C@@H]2CC[C@@H](O)[C@H](OC)C2)CC(=O)[C@H](C)/C=C(\C)[C@@H](O)[C@@H](OC)C(=O)[C@H](C)C[C@H](C)/C=C/C=C/C=C/1C | 99.2 |
| Nc1[nH]nc2nc3ccccc3nc12 | 90 |
| CCOC(=O)c1c(C)[nH]c(/C=C2\C(=O)Nc3ccccc32)c1C | 96 |
| Cc1nc(-c2ccccc2)c(-c2ccncc2)o1 | 95.9 |
| COc1ccc(CNC(=O)Nc2ncc([N+](=O)[O-])s2)cc1 | 103 |
| Cn1c2ccccc2c2c3c(c4c5ccccc5n(CCC#N)c4c21)CNC3=O | 51.3 |
| COc1ccc(OC)c2c(=S)c3ccccc3[nH]c12 | 104 |
| COc1cc2ncnc(Nc3ccc(F)c(Cl)c3)c2cc1OCCCN1CCOCC1 | 95.4 |
| Cn1sc(=O)n(Cc2ccccc2)c1=O | 102 |
| O=C(Nc1cccc(Nc2cc(Nc3cccc(C(F)(F)F)c3)ncn2)c1)C1CC1 | 105 |
| O=S(=O)(c1cccc2cnccc12)N1CCCNCC1 | 93.2 |
| O=C1NC(=O)C(c2cn(CCCn3ccnc3)c3ccccc23)=C1Nc1ccccc1 | 93.8 |
| O=C1NC(=O)C(c2cn(CCCO)c3ncccc23)=C1c1cnccn1 | 97.6 |
| COc1cc2ncnc(Nc3ccc(Oc4ccccc4)cc3)c2cc1OC | 98.2 |

Set 4
Structure (SMILES): CO[C@@H]1[C@@H](OC(N)=O)[C@@H](O)[C@H](Oc2ccc3c(O)c(NC(=O)c4ccc(O)c(CC=C(C)C)c4)c(=O)oc3c2C)OC1(C)C
Read-out: ATPase activity
Method: ADP-Glo
Relative to: DMSO
RAD51: DNA repair protein RAD51 homolog 1 (RAD51, Homo sapiens, UniProt Q06609)
Chain of UniProt Q06609 (whole entry, looked up): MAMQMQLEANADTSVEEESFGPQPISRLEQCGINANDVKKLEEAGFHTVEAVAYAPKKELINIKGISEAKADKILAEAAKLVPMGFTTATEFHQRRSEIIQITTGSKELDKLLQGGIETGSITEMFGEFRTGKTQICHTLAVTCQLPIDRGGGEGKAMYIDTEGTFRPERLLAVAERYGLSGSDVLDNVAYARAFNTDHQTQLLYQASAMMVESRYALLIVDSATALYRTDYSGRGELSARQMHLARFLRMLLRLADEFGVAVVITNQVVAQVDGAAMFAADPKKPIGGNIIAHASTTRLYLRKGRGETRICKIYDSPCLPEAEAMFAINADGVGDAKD
| target | conditions | remaining activity |
| --- | --- | --- |
| TRIP13 (Homo sapiens, UniProt Q15645) | 50 µM | 101% and 91.3% and 102% and 104% and 91.4% and 96.7% |
| SWI/SNF-related matrix-associated actin-dependent regulator of chromatin subfamily A-like protein 1 (SMARCAL1, Homo sapiens, UniProt Q9NZC9) | 100 µM | 97.1% and 98.4% and 95.7% and 95% and 103% and 96.4% |
| RAD51 | 100 µM | 77.9% and 75.1% and 64.5% and 69.9% and 73.8% |
| CHD1 (Homo sapiens, UniProt O14646) | 50 µM | 75.1% and 91% and 74.9% and 96.1% and 87.4% and 82.7% |
| RAD51 | 25 µM | 99.4% and 101% and 97.5% and 73.8% and 98.5% and 88.6% |

Excerpt of the above (set 3):
| SMILES | remaining activity [%] |
| --- | --- |
| O=S(=O)(c1cccc2cnccc12)N1CCCNCC1 | 93.2 |
| O=C1NC(=O)C(c2cn(CCCn3ccnc3)c3ccccc23)=C1Nc1ccccc1 | 93.8 |
| N#CC(C#N)=C(N)/C(C#N)=C/c1ccc(O)cc1 | 93.3 |
| Nc1[nH]nc2nc3ccccc3nc12 | 90 |
